Assay results collected from several papers.
Numbered parts are unrelated; each lists some results of a single study.

Series 1
Target: Histone acetyltransferase KAT6A, winged helix 1, GST fusion (KAT6A, Homo sapiens, UniProt Q92794, residues 1-85)
Technique: protein binding microarray
Molecule type: double-stranded DNA, one strand shown
Sample: in vitro
Concentration: not given
Setting: 8-mer, flanks averaged, mean of 2 arrays, mostly near background
Reference: not given
Direction: higher = stronger binding
Residues (chain): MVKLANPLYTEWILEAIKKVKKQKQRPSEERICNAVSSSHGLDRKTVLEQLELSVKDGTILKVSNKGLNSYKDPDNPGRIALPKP
Sequence | E-score
CTTCTATA | -0.159
AAGTCACA | -0.124
TAAAAAAA | -0.111
CACATCTG | -0.192
GTAAATCA | -0.113
GAAACACC | -0.00696
CACTATGG | -0.0765
CCAGCCGA | 0.164
CTTTCTGC | -0.00925
CGCACAGA | 0.186
GGGATTCA | -0.0466
ACTTTAGG | -0.164
AGTCGGCA | 0.148

Series 2
Target: RING finger protein unkempt homolog, zinc fingers 1-6, GST-SBP tag (UNK, Homo sapiens, UniProt Q9C0B0, residues 30-357)
Technique: RNA Bind-n-Seq
Molecule type: RNA
Sample: in vitro
Concentration: not given
Setting: RNA with constant flanks, human and mouse sites, ends assumed
Reference: input RNA pool
Direction: higher = stronger binding
Residues (chain): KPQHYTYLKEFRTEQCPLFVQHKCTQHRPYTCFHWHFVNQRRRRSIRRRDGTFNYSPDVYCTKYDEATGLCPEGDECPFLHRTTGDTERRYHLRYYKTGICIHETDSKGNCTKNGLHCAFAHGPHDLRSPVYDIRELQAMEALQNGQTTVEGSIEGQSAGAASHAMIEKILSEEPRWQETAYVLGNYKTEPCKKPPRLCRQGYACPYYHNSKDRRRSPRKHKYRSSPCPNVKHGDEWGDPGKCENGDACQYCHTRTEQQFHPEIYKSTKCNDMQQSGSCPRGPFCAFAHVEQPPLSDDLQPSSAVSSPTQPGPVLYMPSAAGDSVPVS
Sequence | bound/input enrichment [ratio]
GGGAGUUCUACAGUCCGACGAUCAGUGAAAAUAUUUCUGCAGCUAUUCAAGCUAAUGGUGAGAUGGUUACAAAGCAACCAUUGAUUAGAAGUAUGCGGACAGUAAAAAGGGAAACUUUAAAGUUAAUAUCUGGUUGGGUGAGCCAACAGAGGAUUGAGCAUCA | 0.438
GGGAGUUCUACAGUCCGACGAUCGGUCAUUCGUAUGUCACAUGUUUUAAACUGGGGUCUCUGUGUGUAUUUGUGUGUGUGUUCUACCUUUCUACCAUAUGUCAUCAGUUUAAUGGUAACUUUAUUUAUUUAAAAACAAAGAAACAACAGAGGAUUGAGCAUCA | 0.561
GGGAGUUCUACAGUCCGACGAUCUUUGGAGGGAGUAGAACAGGACCCCUCUCUGGAAAGAAGUUUGGAAAUCCUGGGGAGAAACUAGUUAAAAAGAAGUGGAAUCUUGAUGAGCUGCCCAAAUUUGAGAAGAAUUUUUAUCAACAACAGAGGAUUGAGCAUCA | 3.49
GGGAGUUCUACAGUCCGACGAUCUCAGAAGGGCAGCUCGGCUUAGGCCAUACCAACCAUGUUCGAGAACCAACCCUGGUAACAGGUCUGCAAGGGAAAAAUGUUCGGCAGAUCUCGGCUGGCCGCUGCCACAGUGCUGCAUGGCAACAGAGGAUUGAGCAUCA | 0.093
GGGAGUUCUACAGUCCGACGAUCGGCACUGGCUUCGUGUUCAGCUGCCUCAGCGGCCAGGGCCGUACCACAACUGCGAUGGUGGUGGCUGUCCUGGCCUUCUGGCACAUCCAAGGCUUCCCCGAGGUGGGUGAGGAGGAGCUCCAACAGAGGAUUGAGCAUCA | 0.0804
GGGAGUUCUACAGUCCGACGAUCGCCGUUAUUAAACGAUUGAUUAGUGUCUUAAACAAAAGCACGGGUGAAGUCACAAAGAAAAAGCCUAAGUUUUUGACUAAAGGCCAGAAUGCAUUGGUAGAGCUACAGACACAAAGACCACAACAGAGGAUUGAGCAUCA | 0.161
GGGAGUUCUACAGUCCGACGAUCGCCUGGUCCAGCAUCGUCUACCAGCUGAUUCCCAACGUUCAGCAGCUGGAGAUGAACCUCAGGAAUUUUGCCCAAAUCAUUGAGGCCGAUGAAGUUCUGCUGUUCGAAAGAGCUACAUUCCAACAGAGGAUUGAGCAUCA | 0.0843

Series 3
Target: Hepatocyte nuclear factor 3-alpha (Foxa1, Mus musculus, UniProt P35582, residues 1-468, full length assumed)
Chain of UniProt P35582 (whole entry, looked up): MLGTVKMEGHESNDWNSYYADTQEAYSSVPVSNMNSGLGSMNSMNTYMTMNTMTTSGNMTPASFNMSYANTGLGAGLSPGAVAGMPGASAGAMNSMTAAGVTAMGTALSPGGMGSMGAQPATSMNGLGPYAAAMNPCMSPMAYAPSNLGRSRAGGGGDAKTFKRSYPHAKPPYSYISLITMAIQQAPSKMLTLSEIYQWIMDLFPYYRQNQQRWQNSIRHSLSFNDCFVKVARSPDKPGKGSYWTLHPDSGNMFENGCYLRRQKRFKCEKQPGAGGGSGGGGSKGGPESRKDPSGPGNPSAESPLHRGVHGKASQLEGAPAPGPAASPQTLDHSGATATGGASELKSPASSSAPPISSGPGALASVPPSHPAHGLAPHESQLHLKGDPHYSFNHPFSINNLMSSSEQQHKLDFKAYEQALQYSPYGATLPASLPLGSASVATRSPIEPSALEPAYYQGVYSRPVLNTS
Technique: EMSA with sequencing
Molecule type: double-stranded DNA, one strand shown
Sample: in vitro
Concentration: 10 and 20 nM
Setting: whole designed probe, mean of two concentrations, ends assumed
Reference: negative control set to 0
Direction: higher = stronger binding
Sequence | normalised bound fraction
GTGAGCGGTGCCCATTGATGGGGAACCTGCGGATCACCCCAAGGAAAATCCAGACTGATTCGATCAGTCCTAGCTGGAAGCAGCACAGGAATAGCAGGAAGCCTATGACTCATTTTAAGCAATCTTCCGGTAACCCGACTGGTATCTGGTTCAAATGGGGAAACCTGAAGCACCTATGACAGGCCAGGCCCAGAGAAGATACTGCCCAGATGGATACAGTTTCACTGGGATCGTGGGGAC | -0.1 ratio
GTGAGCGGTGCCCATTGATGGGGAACGTGAATGCTGGAGTTGGGTTATGAAATCAGGCAGTTAAACTACAGTCTGTGTATTTAACCATAGGGCTGTGATTCAAGCCACTTGAAATAAGGATGTTTACAAAGAAATATTGATTCATAGCCATAATAGCAATTCAAATATTGACATAACATGCGGGGCATCTGTTCAAATTTAGATTACCACATCACACAGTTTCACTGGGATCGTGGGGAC | 0.429 ratio
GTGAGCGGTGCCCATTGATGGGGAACCAAGTTTGTGGTCCAGGAGCAACAGGTTATGCCATACAGCCTAGGTGTGTAGTAGGCTACACACCGTCTATGTTTGTGTTGTACACTCTACAATGTTTGCACAATGATGAAATCCCATGACTCATTTCTCAGAACATACCCCTGTTGTTAAGCGATACATGACTGTACTTTTTTTAAAAAGTCCAAGGATATATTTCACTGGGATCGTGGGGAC | 0.489 ratio
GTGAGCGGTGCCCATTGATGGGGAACGGAATACCCCTTTGATTTTACTGGTGACGTATACCCACTAGTGTACTGAGACGGAAAAAAAAGTCTTTAGAACTCAGATAAATATACAGTTCATATTTACTATTTATGTATGTGTGATCTCATTATTAAATTACTCTATCATGTTTGTGGAATTAGCAGTTTCTCTTTGAATTTGGATGTTTCTAGTTATGTGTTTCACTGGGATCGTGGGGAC | 0.109 ratio
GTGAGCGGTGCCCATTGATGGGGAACTTGATCTAGTCTCAATTACACCCTTGACTTAAGCCATTTTTCATGTACCACCCTAGTCTTTATCTGAATCACACATATCAGTTATAATATTCCTTGTTTACTCATTTGTGACTTTTCTAGAAGCATTGGGGTATCATGTGAACTTCATGTTTTCTTCCCGATACTGTTGATACTTTTAGATATGTCTTAATTATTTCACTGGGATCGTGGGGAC | 0.288 ratio
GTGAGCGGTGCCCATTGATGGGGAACCATTAGAGTCAAAGTTGTTAAGGGGAGCTAGTCATAGCTACCACGTGGCCAGGCATGTGGAACCAGACACCAGGCACACATCATGTAACATCATATTTACTTTAAATAATGCTGACAACCTAGTTCATAGTGACACACTACTTGAGATATATAGAATAACATTATTACCCAGTAAGTATGTGAACATTCCGATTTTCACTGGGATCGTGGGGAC | 0.301 ratio

Series 4
Target: RNA binding protein fox-1 homolog 2, RRM domain, GST-SBP tag (RBFOX2, Homo sapiens, UniProt O43251-10, residues 100-194)
Technique: RNA Bind-n-Seq
Molecule type: RNA
Sample: in vitro
Concentration: 365 nM
Setting: natural RNA segment, single round, ends assumed
Reference: no-protein control
Direction: higher = stronger binding
Construct (chain): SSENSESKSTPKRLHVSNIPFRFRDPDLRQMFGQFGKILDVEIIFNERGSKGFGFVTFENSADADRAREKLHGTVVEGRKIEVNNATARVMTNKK
Sequence | RBNS enrichment (R)
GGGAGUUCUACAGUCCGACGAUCUGUUCGGAAAACAUAAAGGACCACUCCUGAAGACAGGGAGAUCGCGGAAGUCAUCAAGCACUUGGGCGUUCUGCUCCGAUGCAGCUGUGGCCAGCGGUCAGGCUGCUGAGUGGAAUUCUCGGGUGCCAA | 0.472
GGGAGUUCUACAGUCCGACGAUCAGGGGAGUCAAUUCCUCCAUUUUUCUUUACUAACUUGGGCUUUUCCUUUUGAAUUACUGGGCAGGGAGGUGAGUGGAUGACUUAAUGAUUUCAUGAAUGAAAUAAAGAUUUGGAAUUCUCGGGUGCCAA | 0.358
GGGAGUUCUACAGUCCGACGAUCCACUUCUGAGGAGACUGUACAGCCCGUUUUGUGCCUGUGUGUGUGUUCAUGGCCUGUAAGUGUACCCCAAGCACUGUGGGCGGGAGCUACCACUUCUUUGAGAACCUCUGUGGAAUUCUCGGGUGCCAA | 0.442
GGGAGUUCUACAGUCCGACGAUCGGGGAUCCCUGAGAAGAGUGUCCUUUAGAAAGCUAGGCAGAUGUGGAUUGCUGCUAGGAGAGUGACCCUUUAGUGGCAUAGUGACCUCAGACAAGAACUCCCUGGUUGAAUGGAAUUCUCGGGUGCCAA | 1.93
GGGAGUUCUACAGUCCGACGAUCUGCAGAGGAGGUUCUCUUCAUAAGGGGGACUCACAGAAGGACCUUCCAGUGAAUGUUUGACCUAGGGAAUGCAGCCACACUGGAAGCACCAAUAGAGGGCUAAGGUCAGAUGGAAUUCUCGGGUGCCAA | 8.19
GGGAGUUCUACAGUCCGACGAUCUGGACUGCCAUCUUGGCAGACCUGAACUUUGCUGAGCCUGAUUUUCACAAAGGAGUAGGCCAUGUAGGAGAAAGGGAUAGUGACUUAGUCUUAAGGUGACUAAGAUUCACUGGAAUUCUCGGGUGCCAA | 0.798
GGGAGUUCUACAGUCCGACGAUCAGCUCUGGCAAGGGCGUCAGGGUCCUAAUCUGGAUGGGUAUUGAUCAUGUCCAACCUGCUGGAGCCCCUUCACAUGGUGGAUGAUGCCCCAUGACCCUGUAGAAAUUGAAUGGAAUUCUCGGGUGCCAA | 1.51
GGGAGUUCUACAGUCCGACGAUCUUCAAGUGACUGUGGCUCCUUUCUCUCCCUGGCCCCUAGUUUCUCCAUCUCCCAGACCAAGGGGGCGAGGGGGUUGAGUGGAGUCUUCCCUUCAAAGCAGGGAAGAAUACUGGAAUUCUCGGGUGCCAA | 0.412
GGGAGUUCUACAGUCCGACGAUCACUAACAUUUCCAAUAUCUGUAAGAUACCAAAGGACUGAGACUAACUGAUCUUUUAAUGGAAUUUCUUUGAAAUCAAAUCCAUAACUGAUUCUAUUAAGAUACAAUAGCUUGGAAUUCUCGGGUGCCAA | 0.227
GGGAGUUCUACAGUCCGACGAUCAUUCCUCUUGCCCAACGGCAUAUGGAGUGUCCUUAUUGCUAAAAAGGAUUCCGUCUCCUUCAAAGAAGUUUUAUUUUUGGUCCAGAGUACUUGUUUUCCCGAUGUGUCCAUGGAAUUCUCGGGUGCCAA | 0.474
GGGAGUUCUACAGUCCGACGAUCGAGUCUAACAGACACUGAUUUCAUGUGCACUCCCCUCUGCUUACAAUGUGCAUUUUUUGGAGGUCAUUCAAAUUUUCCCUCUUCUGUGAUUGCUGUAGUUUCUUUCAUAGUGGAAUUCUCGGGUGCCAA | 1.42
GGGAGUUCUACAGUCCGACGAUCUCAAAUUUAGGGGCAAAGUGGAGACUGGAAGAAUUCUCCUUUCAGAAGAACCACGAGGCUCUGGCUGAGCCUCCCUCUGGAGUGCUAGUGUACCUGUGGGUCUGUCCUCUUGGAAUUCUCGGGUGCCAA | 0.232

Some of these lines once more (series 3):
Sequence | normalised bound fraction
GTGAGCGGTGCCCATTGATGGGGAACCAAGTTTGTGGTCCAGGAGCAACAGGTTATGCCATACAGCCTAGGTGTGTAGTAGGCTACACACCGTCTATGTTTGTGTTGTACACTCTACAATGTTTGCACAATGATGAAATCCCATGACTCATTTCTCAGAACATACCCCTGTTGTTAAGCGATACATGACTGTACTTTTTTTAAAAAGTCCAAGGATATATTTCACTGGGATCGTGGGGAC | 0.489 ratio
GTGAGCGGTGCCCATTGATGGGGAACGGAATACCCCTTTGATTTTACTGGTGACGTATACCCACTAGTGTACTGAGACGGAAAAAAAAGTCTTTAGAACTCAGATAAATATACAGTTCATATTTACTATTTATGTATGTGTGATCTCATTATTAAATTACTCTATCATGTTTGTGGAATTAGCAGTTTCTCTTTGAATTTGGATGTTTCTAGTTATGTGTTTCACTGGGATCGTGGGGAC | 0.109 ratio
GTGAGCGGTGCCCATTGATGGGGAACTTGATCTAGTCTCAATTACACCCTTGACTTAAGCCATTTTTCATGTACCACCCTAGTCTTTATCTGAATCACACATATCAGTTATAATATTCCTTGTTTACTCATTTGTGACTTTTCTAGAAGCATTGGGGTATCATGTGAACTTCATGTTTTCTTCCCGATACTGTTGATACTTTTAGATATGTCTTAATTATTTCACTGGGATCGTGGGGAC | 0.288 ratio
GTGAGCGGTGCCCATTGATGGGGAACCATTAGAGTCAAAGTTGTTAAGGGGAGCTAGTCATAGCTACCACGTGGCCAGGCATGTGGAACCAGACACCAGGCACACATCATGTAACATCATATTTACTTTAAATAATGCTGACAACCTAGTTCATAGTGACACACTACTTGAGATATATAGAATAACATTATTACCCAGTAAGTATGTGAACATTCCGATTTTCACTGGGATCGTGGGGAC | 0.301 ratio
